{"data": "Results pooled from the literature", "note": "Numbered parts are unrelated; each lists some results of a single study."}
{"data": "Sample 1", "target": "Interferon regulatory factor 3, full length, phosphomimetic (IRF3, Homo sapiens, UniProt Q14653, residues 1-427, S386D/S396D/S398D/S402D/T404D/S405D)", "technique": "protein-binding microarray", "molecule type": "double-stranded DNA, one strand shown", "sample": "in vitro", "tested at": "2540 nM top", "setting": "60-bp whole probe", "added": "salmon DNA 0.4 mg/ml", "reference": "random background probes", "direction": "higher = stronger binding", "all sequences stand within": "GCCTAGCAC … GTCTTGATTCGCTTGACGCTGCTG", "Target sequence (chain)": "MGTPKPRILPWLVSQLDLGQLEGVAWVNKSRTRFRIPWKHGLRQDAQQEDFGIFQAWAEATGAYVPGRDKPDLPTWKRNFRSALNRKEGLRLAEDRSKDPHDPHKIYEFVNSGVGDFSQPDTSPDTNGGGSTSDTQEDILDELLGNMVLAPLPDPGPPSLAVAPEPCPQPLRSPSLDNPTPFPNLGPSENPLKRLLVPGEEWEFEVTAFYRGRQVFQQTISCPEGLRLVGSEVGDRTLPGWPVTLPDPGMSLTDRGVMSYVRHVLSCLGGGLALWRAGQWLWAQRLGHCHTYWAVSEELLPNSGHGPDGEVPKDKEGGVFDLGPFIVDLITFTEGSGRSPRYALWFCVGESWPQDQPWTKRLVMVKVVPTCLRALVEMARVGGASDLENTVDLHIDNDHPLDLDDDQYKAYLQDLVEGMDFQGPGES"}
{"Sequence": "TCACTTTCCAATTGTCCTACTGTGCTA", "fitted relative affinity": "6.43 z-score"}
{"Sequence": "TTAGATGTCGGGTATCGATTAGTGCTA", "fitted relative affinity": "0.228 z-score"}
{"Sequence": "GACGGTCTCCTTTTCCTGTCGTGCTAG", "fitted relative affinity": "5.24 z-score"}
{"Sequence": "TTAGGTATCGGGCCTGGGTTAGTGCTA", "fitted relative affinity": "-0.104 z-score"}
{"Sequence": "TTAGGTATCGGGTATCGGTCAGTGCTA", "fitted relative affinity": "1.42 z-score"}
{"Sequence": "TTAGGTATTCTTCTCCTTTAGTGCTAG", "fitted relative affinity": "1.21 z-score"}
{"Sequence": "TTAGGACTGCTTATCCTCTAGTGCTAG", "fitted relative affinity": "-0.469 z-score"}
{"Sequence": "GACGGTATCCTTATCCTGAAGTGCTAG", "fitted relative affinity": "4.95 z-score"}
{"Sequence": "GACGGACTGGATTATCGGGACGTGCTA", "fitted relative affinity": "-0.326 z-score"}
{"Sequence": "GACGATTTCGGGTTTCGATACGTGCTA", "fitted relative affinity": "3.8 z-score"}
{"Sequence": "TTAGCTTTCGACTTTCGGTTAGTGCTA", "fitted relative affinity": "2.15 z-score"}
{"Sequence": "TCATATATCTGAACCGCACTGTGCTAG", "fitted relative affinity": "0.688 z-score"}
{"Sequence": "TTATGTTTCGGGTTTCGGTTAGTGCTA", "fitted relative affinity": "5.68 z-score"}
{"Sequence": "TTTTTTTTCTAACTAAAAATGTGCTAG", "fitted relative affinity": "2.62 z-score"}
{"Sequence": "CTCGCCTGGGGATGCTAACAGTGCTAG", "fitted relative affinity": "-0.752 z-score"}
{"Sequence": "TCAAGGTTCAAGTTTACCACTGTGCTA", "fitted relative affinity": "-0.367 z-score"}
{"Sequence": "TTGGGTTTCCTTCTCCTTTAGTGCTAG", "fitted relative affinity": "8.28 z-score"}
{"Sequence": "TCATCTTTACTTCACTCACTGTGCTAG", "fitted relative affinity": "1.12 z-score"}
{"Sequence": "GACGGTCTCGGTTTCAGGACGTGCTAG", "fitted relative affinity": "3.17 z-score"}
{"Sequence": "TTTTTTTTCATCATTGCCTGGTGCTAG", "fitted relative affinity": "1.66 z-score"}
{"Sequence": "TTAGGACTGAGTTTCGATTAGTGCTAG", "fitted relative affinity": "2.32 z-score"}
{"Sequence": "TCAAATATGAGACTGGGACTGTGCTAG", "fitted relative affinity": "-0.304 z-score"}
{"Sequence": "TTAGGACTGGGTTGCGGTTAGTGCTAG", "fitted relative affinity": "0.191 z-score"}
{"Sequence": "CCTGGTTTTACTTTCTATCTGTGCTAG", "fitted relative affinity": "3.57 z-score"}
{"Sequence": "GACGAACTGAGACTGGACACGTGCTAG", "fitted relative affinity": "-0.264 z-score"}
{"data": "Sample 2", "target": "Histone acetyltransferase KAT6A, both winged helices, GST fusion (KAT6A, Homo sapiens, UniProt Q92794, residues 1-181)", "technique": "protein binding microarray", "molecule type": "double-stranded DNA, one strand shown", "sample": "in vitro", "tested at": "not given", "setting": "8-mer, flanks averaged, mean of 2 arrays, mostly near background", "reference": "not given", "direction": "higher = stronger binding", "Target sequence (chain)": "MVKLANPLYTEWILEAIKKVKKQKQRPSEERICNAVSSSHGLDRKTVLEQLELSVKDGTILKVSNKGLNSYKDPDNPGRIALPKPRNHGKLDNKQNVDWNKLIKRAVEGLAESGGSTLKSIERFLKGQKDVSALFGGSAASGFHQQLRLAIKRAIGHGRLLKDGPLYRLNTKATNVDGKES"}
{"Sequence": "ACCATCAC", "E-score": -0.0717}
{"Sequence": "AGCCAGTC", "E-score": -0.16}
{"Sequence": "CCTGGATC", "E-score": -0.201}
{"Sequence": "GATCGCCC", "E-score": 0.0345}
{"Sequence": "CCCAAGGA", "E-score": 0.016}
{"Sequence": "AGCATCTC", "E-score": -0.209}
{"Sequence": "CTATTATC", "E-score": -0.0495}
{"Sequence": "CGAAAATC", "E-score": -0.0747}
{"Sequence": "AGCCTCCC", "E-score": -0.104}
{"Sequence": "CGAAGAGA", "E-score": -0.0448}
{"Sequence": "AAAACCCC", "E-score": -0.129}
{"Sequence": "AGTACAGG", "E-score": -0.144}
{"Sequence": "CGACTCAC", "E-score": 0.00112}
{"Sequence": "ACTAGCTA", "E-score": -0.0589}
{"Sequence": "GAACTGTA", "E-score": 0.113}
{"Sequence": "GCGAGTAA", "E-score": 0.154}
{"Sequence": "CGTAACAG", "E-score": 0.0621}
{"data": "Sample 3", "target": "Hepatocyte nuclear factor 3-alpha (Foxa1, Mus musculus, UniProt P35582, residues 1-468, full length assumed)", "technique": "EMSA with sequencing", "molecule type": "double-stranded DNA, one strand shown", "sample": "in vitro", "tested at": "10 and 20 nM", "setting": "whole designed probe, mean of two concentrations, ends assumed", "reference": "negative control set to 0", "direction": "higher = stronger binding", "chain of UniProt P35582 (whole entry, looked up)": "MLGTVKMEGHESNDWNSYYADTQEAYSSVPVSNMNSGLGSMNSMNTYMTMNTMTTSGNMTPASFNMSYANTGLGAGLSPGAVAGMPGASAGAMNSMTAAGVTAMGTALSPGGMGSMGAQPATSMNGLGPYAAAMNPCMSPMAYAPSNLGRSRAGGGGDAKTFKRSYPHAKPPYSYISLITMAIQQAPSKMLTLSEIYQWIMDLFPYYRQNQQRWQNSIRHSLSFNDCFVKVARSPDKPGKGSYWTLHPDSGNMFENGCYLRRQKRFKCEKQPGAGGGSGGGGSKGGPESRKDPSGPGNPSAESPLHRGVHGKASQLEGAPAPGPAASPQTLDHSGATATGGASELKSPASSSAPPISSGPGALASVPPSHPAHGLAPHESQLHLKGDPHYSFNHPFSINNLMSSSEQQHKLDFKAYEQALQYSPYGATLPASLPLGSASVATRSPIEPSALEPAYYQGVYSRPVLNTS"}
{"Sequence": "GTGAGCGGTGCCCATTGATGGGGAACTGCTTTGGTGACATATGTGGGCTTCATCATCTACATGTAGCCCACCTAACTCCATCTTTACACATCTGTGTACCCATCTCTGGAGTTTTGTTCATGTTTACTTTGAACTGTTTTTCTGTGTTACTGAATTCCCTGCATCCTTCAGGAACAAACTTATATCCATGTTCACCATAAAATGTCTCCTGATAACTCCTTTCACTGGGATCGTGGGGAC", "normalised bound fraction": "0.383 ratio"}
{"Sequence": "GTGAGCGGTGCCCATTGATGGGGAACCTTCCAAAGGTCAAGTTGATACTGCATGACCTAAGGCCCCCGCCATAAATTGCGTAGATTGCATAGATGACCTGGCACAACCCAAAGCCTTAGGTAATTTAAGACACTCTTAGAAAACAGGGTATTCCAAAGGCTCAGGGATTATCTTTCAGGAGATGGGCAGGGCCCAGTTGGGTTTTTTTTTTTTTTTTTTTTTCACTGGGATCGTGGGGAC", "normalised bound fraction": "0.0182 ratio"}
{"Sequence": "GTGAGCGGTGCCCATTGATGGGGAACCACGTGCACAAACCCATATGCCTTACAGAGTCAAGGGCTGTGATGAGGGTCCCCACCCTTGCACACTTCTCTGTCCTCTGTCTGGGCTCAGAGTAATCTGGGGGTCACCTGGAATCCAGGTCTAAGCTGGGCTTGGAGGTGTCCTAATGAAGCAGGATGCTGACATGCACTTCCCCAGGTCAGCTGGGGCTGTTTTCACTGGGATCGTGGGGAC", "normalised bound fraction": "-0.0851 ratio"}
{"Sequence": "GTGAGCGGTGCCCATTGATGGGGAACCAACCAAGCAGTATTAGAGCAATTTAGCAAATTCCTCAGTTGAGAGTTAATCTTGCAAACATCCTGCTGTAGGGAAAGGTCATGGCCTGATCTGTAATCTCGGGAAGAGAGCCATTGGACTTGGGAATCAGATGCAGCCTCACACGGCTGCAGACCGCAAGACTCATCCTAGACACAGCTTATGTCACTGTGATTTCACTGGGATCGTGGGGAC", "normalised bound fraction": "-0.0519 ratio"}
{"Sequence": "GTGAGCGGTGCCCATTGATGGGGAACATCTTCCCCCTCTTCCTTGCCCCACCAGCTCACCTTCCCGGGTTATTTGCAGATAGGAAAATAAATAAAGCCGGCATTCGTTAACCCTCTTCTGGCGCACAACGTGGTCCGTATTTGTTGAATCATGGTCCTTTGGCGACGCCAGGCTCCGGGAGAGCAAAGCACCGTGTCAGGGCCATGATCCGGGGTGGCCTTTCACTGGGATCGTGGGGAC", "normalised bound fraction": "0.346 ratio"}
{"Sequence": "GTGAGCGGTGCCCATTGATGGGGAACTCTAAATCTAATCAATTAAAATGGCTTTTTATAAGTAGCTGGATTTTTATGACTGCAAATATTGCTTTCCTGCTTATTTTCCTTCTAATCCTGAGATTACTTAGCTAGTTCAAGGAGTCAAGGCAGTACAGTGTATATAAGGAAGGGCTTTGGCATTAGTCAACTCTGGGTCATATCCTAGTTTCCCAGTTACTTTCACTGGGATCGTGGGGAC", "normalised bound fraction": "0.0283 ratio"}
{"Sequence": "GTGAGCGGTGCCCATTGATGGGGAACTACTGAATAATAATTATTAAGCTATATACTTACAGAAAAGAGGATATGAAAATATTAATCAAGTATGAGCTGAACTGGTAACTTTTATGCACTGTCAACAAGAGATCTAAGATTTTTATTGAGCTCCTACCATAAAGACACATCATTTCAATTCAACCATCAGTAGCCTCTACTTTTTAAAAAAATATTTTTATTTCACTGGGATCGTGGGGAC", "normalised bound fraction": "0.0481 ratio"}
{"Sequence": "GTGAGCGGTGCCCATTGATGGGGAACAATGTGAGCCATCTCCCGACACTCCGAGTTAATCTATAATGGAGTATTAGCACTGAGACACTGTATATGCCCCTGTCATCCTTTCCCCCAAAGTAAACAAGGGAAAGCCACACAGGCTTTAACACATAATACCTTACTTAATTCCATCAAACAGTGTCCTGAGACTCAGGATTGATAAAATACTGCAGTTCAATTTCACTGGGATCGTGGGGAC", "normalised bound fraction": "0.432 ratio"}
{"data": "Sample 4", "target": "Sal-like protein 4, full length isoform A (SALL4, Homo sapiens, UniProt Q9UJQ4, residues 1-1053)", "technique": "universal PBM", "molecule type": "double-stranded DNA, one strand shown", "sample": "in vitro", "tested at": "600 nM", "setting": "8-mer, flanks averaged, mean of replicates", "direction": "higher = stronger binding", "chain of UniProt Q9UJQ4 (whole entry, looked up)": "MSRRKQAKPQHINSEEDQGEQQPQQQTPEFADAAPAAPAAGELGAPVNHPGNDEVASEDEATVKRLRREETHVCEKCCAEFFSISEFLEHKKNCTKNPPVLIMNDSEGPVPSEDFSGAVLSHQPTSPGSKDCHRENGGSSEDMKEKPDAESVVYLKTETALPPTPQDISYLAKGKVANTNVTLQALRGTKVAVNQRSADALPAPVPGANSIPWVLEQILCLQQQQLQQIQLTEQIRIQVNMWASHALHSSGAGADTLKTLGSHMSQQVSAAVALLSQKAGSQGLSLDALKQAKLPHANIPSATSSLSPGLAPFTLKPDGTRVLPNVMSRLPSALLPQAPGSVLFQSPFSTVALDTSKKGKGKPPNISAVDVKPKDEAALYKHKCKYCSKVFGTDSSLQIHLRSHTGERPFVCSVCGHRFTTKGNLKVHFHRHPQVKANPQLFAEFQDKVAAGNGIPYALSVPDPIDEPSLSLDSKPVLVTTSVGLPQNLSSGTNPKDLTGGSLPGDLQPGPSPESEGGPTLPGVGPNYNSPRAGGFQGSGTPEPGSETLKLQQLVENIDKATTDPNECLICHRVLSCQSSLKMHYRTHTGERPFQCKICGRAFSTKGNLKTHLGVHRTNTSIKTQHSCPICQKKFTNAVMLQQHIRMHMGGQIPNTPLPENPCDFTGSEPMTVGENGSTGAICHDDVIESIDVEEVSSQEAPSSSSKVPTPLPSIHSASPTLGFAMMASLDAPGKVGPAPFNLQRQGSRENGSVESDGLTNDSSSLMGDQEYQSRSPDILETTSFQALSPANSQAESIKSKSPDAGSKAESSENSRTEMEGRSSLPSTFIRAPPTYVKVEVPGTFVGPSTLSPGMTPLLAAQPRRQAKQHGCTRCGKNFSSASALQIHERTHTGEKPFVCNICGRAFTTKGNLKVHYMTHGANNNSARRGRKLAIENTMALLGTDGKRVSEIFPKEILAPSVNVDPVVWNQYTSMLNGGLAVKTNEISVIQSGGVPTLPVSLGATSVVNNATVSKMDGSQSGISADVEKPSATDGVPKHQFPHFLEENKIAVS"}
{"Sequence": "GTGGGAGA", "E-score": -0.135}
{"Sequence": "CACTCCCA", "E-score": -0.000695}
{"Sequence": "AAATACGC", "E-score": 0.0978}
{"Sequence": "ACTGGAAC", "E-score": -0.0706}
{"Sequence": "GCCCCAGC", "E-score": -0.365}
{"Sequence": "CTGATCGA", "E-score": -0.14}
{"Sequence": "ATATCCCA", "E-score": 0.25}
{"Sequence": "ACTCACTG", "E-score": -0.0706}
{"Sequence": "ACATAGCG", "E-score": 0.15}
{"Sequence": "ACAGGTCT", "E-score": -0.0899}
{"Sequence": "CGAGTACC", "E-score": -0.0721}
{"Sequence": "CCGCCATA", "E-score": 0.0962}
{"Sequence": "CTCACTAA", "E-score": -0.0323}
{"Sequence": "ACGAGCAG", "E-score": -0.0571}
{"Sequence": "GTCCGGAA", "E-score": -0.19}
{"Sequence": "CGGTATAA", "E-score": 0.189}
{"Sequence": "GTTAGATA", "E-score": 0.239}
{"Sequence": "AAGTGAAC", "E-score": 0.0376}
{"Sequence": "CGTGTCCC", "E-score": -0.259}
